{"data": "Experimental data of several laboratories", "GBA1 R534H": "Lysosomal acid glucosylceramidase (GBA1, Homo sapiens, UniProt P04062, R534H)", "GBA1": "Lysosomal acid glucosylceramidase (GBA1, Homo sapiens, UniProt P04062)", "note": "Each line is one published result; not all experiments were run side by side. Numbers after ± are the reported error.", "UniProt P04062, sequence (whole entry, unmodified, looked up)": "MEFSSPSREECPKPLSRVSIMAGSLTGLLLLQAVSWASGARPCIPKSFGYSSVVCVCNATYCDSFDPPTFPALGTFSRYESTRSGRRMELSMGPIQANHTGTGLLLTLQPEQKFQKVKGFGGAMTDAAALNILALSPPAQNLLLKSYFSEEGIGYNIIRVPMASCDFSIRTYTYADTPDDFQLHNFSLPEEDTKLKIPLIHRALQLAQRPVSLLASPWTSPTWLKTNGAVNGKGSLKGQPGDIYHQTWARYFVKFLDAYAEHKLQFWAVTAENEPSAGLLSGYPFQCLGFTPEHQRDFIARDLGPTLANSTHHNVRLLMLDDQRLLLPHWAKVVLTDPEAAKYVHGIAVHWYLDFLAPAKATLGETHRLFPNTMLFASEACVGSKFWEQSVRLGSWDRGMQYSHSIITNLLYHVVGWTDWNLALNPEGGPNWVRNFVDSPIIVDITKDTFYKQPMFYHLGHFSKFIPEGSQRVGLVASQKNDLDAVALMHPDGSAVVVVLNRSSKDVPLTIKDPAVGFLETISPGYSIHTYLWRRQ"}
{"target": "GBA1 R534H", "assay": "enzyme activity, irreversible inhibitor", "setting": "pH 5.2, 37 °C, added: 2,4-DNP-β-Glc", "measurement": "Ki", "result": "> 500 µM", "Structure (SMILES)": "OC[C@@H]1[C@@H](O)[C@H](O)[C@@H](O)[C@H]2O[C@@H]12"}
{"target": "GBA1 R534H", "assay": "enzyme activity, inhibitor", "setting": "pH 5.2, added: 4MU-β-D-Glc substrate", "measurement": "IC50", "result": "0.00124 ± 4e-05 µM", "Structure (SMILES)": "CC1=CC(C)=[N+]2C1=C(CCCCc1cn(C[C@@H]3[C@@H](O)[C@H](O)[C@@H](O)[C@@H]4O[C@H]34)nn1)c1c(C)cc(C)n1[B-]2(F)F"}
{"target": "GBA1 R534H", "assay": "enzyme activity, inhibitor", "setting": "pH 6.8", "measurement": "Ki", "result": "13.7 µM", "Structure (SMILES)": "O[C@H]1[C@H](O)[C@@H](O)c2[nH]cnc2[C@@H]1O"}
{"target": "GBA1 R534H", "assay": "enzyme activity, inhibitor", "setting": "30 min preincubation, pH 5.2, 37 °C, added: 4-MU-β-Glc", "measurement": "IC50", "result": "119 ± 9.8 µM", "Structure (SMILES)": "O=S1(=O)O[C@@H]2[C@H](CO)[C@@H](O)[C@H](O)[C@@H](O)[C@@H]2O1"}
{"target": "GBA1", "assay": "enzyme activity, irreversible inhibitor", "setting": "pH 5.5, 37 °C, added: 2,4-dinitrophenyl beta-D-glucopyranoside", "measurement": "Ki", "result": "188 µM", "Structure (SMILES)": "CCCCCCCCNP(=O)(OCCCCCCCC)O[C@@H]1O[C@H](CO)[C@@H](O)[C@H](O)[C@H]1F (mixture of isomers)"}
{"target": "GBA1 R534H", "assay": "enzyme activity, inhibitor", "setting": "pH 5.2", "measurement": "IC50", "result": "> 150 µM", "Structure (SMILES)": "CCC(=O)[C@@H]1[C@H]2[C@H](O)[C@@H](O)[C@H](O)[C@@H](CO)[C@@H]12"}
{"target": "GBA1 R534H", "assay": "enzyme activity, inhibitor", "setting": "recombinant Cerezyme, added: 4MU-β-D-glucopyranoside", "measurement": "Ki", "result": "10.8 µM", "Structure (SMILES)": "CC(C)COCCCCCN1C[C@H](O)[C@@H](O)[C@H](O)[C@H]1CO"}
{"target": "GBA1", "assay": "enzyme activity, irreversible inhibitor", "setting": "pH 5.5, 37 °C, added: 2,4-dinitrophenyl beta-D-glucopyranoside", "measurement": "Ki", "result": "264 µM", "Structure (SMILES)": "CCCCOP(=O)(CCCC)O[C@@H]1O[C@H](CO)[C@@H](O)[C@H](O)[C@H]1F (mixture of isomers)"}
{"target": "GBA1 R534H", "assay": "enzyme activity, inhibitor", "setting": "pH 6.8", "measurement": "Ki", "result": "0.079 µM", "Structure (SMILES)": "CCCCc1nc2c([nH]1)[C@H](O)[C@@H](O)[C@H](O)[C@H]2O"}
{"target": "GBA1 R534H", "assay": "enzyme activity, inhibitor", "setting": "recombinant Cerezyme, added: 4MU-β-D-glucopyranoside", "measurement": "Ki", "result": "3.8 µM", "Structure (SMILES)": "CC(C)(C)COCCCCCN1C[C@H](O)[C@@H](O)[C@H](O)[C@H]1CO"}
{"target": "GBA1", "assay": "in situ", "system": "human monocyte-derived macrophages", "measurement": "IC50", "result": "~0.01 µM", "Structure (SMILES)": "COc1ccc(C2=[N+]3C(=C(CCCCc4cn(C[C@@H]5[C@@H](O)[C@H](O)[C@@H](O)[C@@H]6O[C@H]56)nn4)c4ccc(-c5ccc(OC)cc5)n4[B-]3(F)F)C=C2)cc1"}
{"target": "GBA1 R534H", "assay": "enzyme activity, inhibitor", "setting": "recombinant Cerezyme, added: 4MU-β-D-glucopyranoside", "measurement": "Ki", "result": "92 µM", "Structure (SMILES)": "OC[C@@H]1[C@@H](O)[C@H](O)[C@@H](O)CN1CCCCCOCC1CCOC1 (stereo partly shown)"}
{"target": "GBA1", "assay": "enzyme activity, irreversible inhibitor", "setting": "pH 5.5, 37 °C, added: 2,4-dinitrophenyl beta-D-glucopyranoside", "measurement": "Ki", "result": "8.2 µM", "Structure (SMILES)": "CCCCCCCCNP(=O)(NCCCCCCCC)O[C@@H]1O[C@H](CO)[C@@H](O)[C@H](O)[C@H]1F"}
{"note": "A few entries again:"}
{"target": "GBA1 R534H", "assay": "enzyme activity, inhibitor", "setting": "30 min preincubation, pH 5.2, 37 °C, added: 4-MU-β-Glc", "measurement": "IC50", "result": "119 ± 9.8 µM", "Structure (SMILES)": "O=S1(=O)O[C@@H]2[C@H](CO)[C@@H](O)[C@H](O)[C@@H](O)[C@@H]2O1"}
{"target": "GBA1", "assay": "enzyme activity, irreversible inhibitor", "setting": "pH 5.5, 37 °C, added: 2,4-dinitrophenyl beta-D-glucopyranoside", "measurement": "Ki", "result": "188 µM", "Structure (SMILES)": "CCCCCCCCNP(=O)(OCCCCCCCC)O[C@@H]1O[C@H](CO)[C@@H](O)[C@H](O)[C@H]1F (mixture of isomers)"}
